Results collected from several papers.
Parts stem from different laboratories: compare values within a part only. Substitutions count along the parent as printed.

Study 1 — technique: protein-binding microarray; molecule type: double-stranded DNA, one strand shown; sample: in vitro; tested at: 250 nM; notes: 60-bp whole probe; together with: salmon DNA 0.4 mg/ml; reference: random background probes; reading: higher = stronger binding; all sequences stand within: GCCTAGCAC … GTCTTGATTCGCTTGACGCTGCTG
Target: Interferon regulatory factor 7, full length, phosphomimetic (IRF7, Homo sapiens, UniProt Q92985, residues 1-503, S101K/S471D/S472D/S475D/S476D/S477D/S483D/S484D/S487D)
Sequence of UniProt Q92985 (whole entry, unmodified, looked up): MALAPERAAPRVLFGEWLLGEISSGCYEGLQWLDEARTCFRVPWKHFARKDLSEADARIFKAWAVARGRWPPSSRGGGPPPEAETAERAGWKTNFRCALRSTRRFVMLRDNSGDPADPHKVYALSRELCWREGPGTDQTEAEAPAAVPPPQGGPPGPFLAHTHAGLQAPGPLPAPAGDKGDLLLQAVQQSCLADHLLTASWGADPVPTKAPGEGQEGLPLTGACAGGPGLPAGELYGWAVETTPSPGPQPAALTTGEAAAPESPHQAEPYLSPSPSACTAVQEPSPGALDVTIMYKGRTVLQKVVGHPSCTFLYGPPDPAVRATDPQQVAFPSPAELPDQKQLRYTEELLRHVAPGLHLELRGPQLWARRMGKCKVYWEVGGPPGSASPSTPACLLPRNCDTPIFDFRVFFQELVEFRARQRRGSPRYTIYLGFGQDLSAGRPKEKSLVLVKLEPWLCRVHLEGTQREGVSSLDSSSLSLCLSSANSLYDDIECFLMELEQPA
`GTCGGACTGGGGTTTCGGGACGTGCTA` has a log fluorescence of 1.43 z-score.
`AGAATGATCTTCCTTCATGGCGTGCTA` gave a log fluorescence of -0.117 z-score.
`TCATTTTTTTTTTTTTAACTGTGCTAG` gave a log fluorescence of 0.633 z-score.
With `CACGGACTGGGGTTTCGGGACGTGCTA` the log fluorescence was 0.919 z-score.
For `TTAGGTATCGGTACTGGGTTAGTGCTA`, the log fluorescence was 0.177 z-score.
With `AATCATTTTCGTTTTTATTAGTGCTAG` the log fluorescence was 6.95 z-score.
The log fluorescence of `GACGAACTGAGTTTCGAGCCGTGCTAG` is reported as 1.66 z-score.
The log fluorescence of `GATGGTATCGGGTTTCGGGACGTGCTA` is reported as 3.74 z-score.
For `TCAAGAAAGAAAACGGGGAGGTGCTAG`, the log fluorescence was 0.172 z-score.
`TTTTCTTTTCATTACTGCATGTGCTAG` gave a log fluorescence of 3.86 z-score.
The log fluorescence of `GACGGTATCCTTCTCCTTACGTGCTAG` is reported as 0.184 z-score.
`GACGGCATCGGGTTTCGGGACGTGCTA` has a log fluorescence of 0.958 z-score.
With `GAGGGTTTCGACACTGGGGACGTGCTA` the log fluorescence was 1.97 z-score.
The log fluorescence of `GACGATATCAGACTGGAGAAGTGCTAG` is reported as -0.214 z-score.
The log fluorescence of `GACGATTTCGGGACTGGAGCCGTGCTA` is reported as 0.0142 z-score.
For `GACGGAGTGCTTCTCCTGACGTGCTAG`, the log fluorescence was -0.674 z-score.

Study 2 — technique: DHFR PCA, deep sequencing; sample: yeast; together with: (+)-ABA 2500 µM; reference: wild-type fitted maximum; reading: higher = stronger binding
Target: ABI1, truncated, D143A, DHFR fusion (Arabidopsis thaliana)
Notes: methotrexate growth selection, single substitutions
Parent: PYL1, truncated, DHFR fusion (Arabidopsis thaliana); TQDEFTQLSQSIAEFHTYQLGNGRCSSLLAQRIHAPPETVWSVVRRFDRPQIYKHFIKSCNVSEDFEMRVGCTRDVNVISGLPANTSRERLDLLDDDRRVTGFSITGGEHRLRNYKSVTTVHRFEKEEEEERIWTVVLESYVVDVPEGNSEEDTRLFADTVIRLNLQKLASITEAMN
For `S26A`, “relative binding score” read 94.6%.
`E130F` — result for “relative binding score”: 101%.
Under “relative binding score”, `I12F` is recorded as 88.5%.
`P83Q`: “relative binding score” 76.7%.
Under “relative binding score”, `N85Q` is recorded as 91.2%.
`G148P`: “relative binding score” 89.9%.
`V40H`: “relative binding score” -0.967%.
`H55A` — result for “relative binding score”: 95.6%.
`F56G` — result for “relative binding score”: 53.3%.
Under “relative binding score”, `Y18M` is recorded as 95%.
For `I33W`, “relative binding score” read 10.6%.
`N165G`: “relative binding score” 71%.
Under “relative binding score”, `E109V` is recorded as 96%.
For `F15K`, “relative binding score” read 78.9%.
`D92N`: “relative binding score” 86.3%.
Under “relative binding score”, `G21R` is recorded as 99.3%.
`K168W`: “relative binding score” 91.3%.
For `L166W`, “relative binding score” read 9.16%.

Study 3 — technique: RNA Bind-n-Seq; molecule type: RNA; sample: in vitro; tested at: 365 nM; reference: no-protein control; reading: higher = stronger binding
Target: RNA binding protein fox-1 homolog 2, RRM domain, GST-SBP tag (RBFOX2, Homo sapiens, UniProt O43251-10, residues 100-194)
Notes: natural RNA segment, single round, ends assumed
All sequences stand within: GGGAGUUCUACAGUCCGACGAUC … UGGAAUUCUCGGGUGCCAA
Residues (chain): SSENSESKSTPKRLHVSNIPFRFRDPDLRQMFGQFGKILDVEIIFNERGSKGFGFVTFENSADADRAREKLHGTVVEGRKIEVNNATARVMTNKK
`AUAGACGAUUGACAUGGCACUGAUGGUCAGUUGCCCAGGGAGGCCGCUUACUCUGGAUGCAGAUGGCUGCUGCCGAUCCACUCUGUCUUUCUCGGGCUGCUUUUGCGUCG` — result for “RBNS enrichment (R)”: 0.525.
`CUUUAGUUUGUUCACAGGGAGGCAAAGCUGACAUGAACCUUUUGUCGUGGGACUUCAGGCCACAUUGGCUUGAAGGCAUUCGUUUCCUUCUGGGGUGGGGACAGGCCCUC` — result for “RBNS enrichment (R)”: 0.699.
Under “RBNS enrichment (R)”, `UAUAUCAUCCUUUAUCCCUGAGGUCACCUGGAAUCAGAUUAUUAAGGGAAUAAGCCAUGACGUCAAUAGCAGCCCAGGGCACUUCAGAGUAGAGGGCUUGGGAAGAUCUU` is recorded as 0.435.
Under “RBNS enrichment (R)”, `UGUAACUCAUUUGAAUAGGUUUUGCAUUUGUUAUUCAGCAGUGUAUAAAGCUAACCUUGAUAAUUUUACUUUUAAUUAAUUAUCUAAAUGAAAAAUGCUAUUAGCUGAAC` is recorded as 0.654.
Under “RBNS enrichment (R)”, `UUCAUGUACAAGGCCCCUCUGCAACUGGAGAGAAAAUUAAUUCCUAUCCCGUGAGUGGAUUGUGAGAAAUUCCACCCACGUGGAGACAGCUUACUGCAGCACUGUUGGUG` is recorded as 0.28.
For `AAGUUUUUUAAUCACUUGAAUAAAUUGAUAUAAUAAAAGGAGCCACCAGGUGGUGUGUGGAUUCUGAUCAUGGACUUAGGUCACUGCUAGGGCUUAGCAGGUGUGGCUUA`, “RBNS enrichment (R)” read 0.42.
`AGAAAACCCGUUUAGGGAGAAGAAGUUUUUCUGUGCCAUCCUUUAAGUCUUUGAGAGGGGCCUGAAGAGCCUCCGGGCUCCUGGGACAUUGAUGUAGAGUUUUUAGUGAA` — result for “RBNS enrichment (R)”: 0.648.
For `UGUCCGUCCAUUCUGGGCCACAGCCAUGAGAUGCCCCUCCUGCUGUGAAGGUAGCUGUGCGCUGGCUCCCAGUGUGCCUGCAGCUGCCACAGGCCAGCACACGGUGGGGA`, “RBNS enrichment (R)” read 0.381.
`AUGGAAUGUGAGCCACAUCUGUACUCUAAACUUUCCUAAUAACUGUGUUAAACAAGAACAACAAAAAAAGGUCUCAUUGUGUAGCCCUAGCUGCUUAUAACUCGCUCUGU`: “RBNS enrichment (R)” 0.318.
`GCAAAUGCUGAACAAGGAGACAGACACACACUAAUCCUCAGCACAGAGCUGGAAAGCUCAUUUCUGGAAUGUUCUAUUUGAGAAUUGCCAUUUCUGGGGUUUGUCUGUUC` — result for “RBNS enrichment (R)”: 0.459.
`UCUCGGCCUCUGUGGGAUUUAGGGAAGCAUUAUAAAUGCAUUAAUCCUUAUAGUCAAUUCUGUGCCUAGGAUUUUGCCAGGGAACAGUUCACUGACUAGGAAAAGCACUA`: “RBNS enrichment (R)” 0.272.
`UACAGCUGCUUUGUUUCUUUGCAAUGCAUUGUAUGGCUUUAUAAAUGAUAAAGUUAAAGAAAACUCUUGCCGUUAUCUAUCUGUGUUGUUCGGACAGGGGUCUGCCAUGU`: “RBNS enrichment (R)” 0.432.

Further values, each from its own experiment
`PhoQ, residues 284 288 289 292 302 303 SCCLKL` gave a fold induction of 0.303 (PhoP, residues 12 14 15 18 19 LHHSG (Escherichia coli, UniProt P23836); Sort-seq, refers to: YFP reporter; E. coli; PhoQ-PhoP variant library, together with: 10 µM Mg2+; reference: high Mg2+ state, higher = stronger signaling).

Excerpt of the above (study 1):
For `TCAAGAAAGAAAACGGGGAGGTGCTAG`, the log fluorescence was 0.172 z-score.
`TTTTCTTTTCATTACTGCATGTGCTAG` gave a log fluorescence of 3.86 z-score.
The log fluorescence of `GACGGTATCCTTCTCCTTACGTGCTAG` is reported as 0.184 z-score.
`GACGGCATCGGGTTTCGGGACGTGCTA` has a log fluorescence of 0.958 z-score.
With `GAGGGTTTCGACACTGGGGACGTGCTA` the log fluorescence was 1.97 z-score.
The log fluorescence of `GACGATATCAGACTGGAGAAGTGCTAG` is reported as -0.214 z-score.
The log fluorescence of `GACGATTTCGGGACTGGAGCCGTGCTA` is reported as 0.0142 z-score.
